# Measurements gathered from unrelated publications.
# Parts stem from different laboratories: compare values within a part only.

# Sample 1
# Target: POU domain, class 5, transcription factor 1, POU domain (Pou5f1, Mus musculus, UniProt P20263, residues 131-289)
# UniProt P20263, sequence (131-289, looked up): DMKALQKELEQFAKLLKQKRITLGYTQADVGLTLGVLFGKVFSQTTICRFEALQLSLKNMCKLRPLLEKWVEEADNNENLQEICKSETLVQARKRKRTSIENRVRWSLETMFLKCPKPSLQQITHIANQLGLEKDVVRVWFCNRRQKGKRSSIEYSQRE
# Method: Spec-seq
# Molecule type: double-stranded DNA, one strand shown
# Medium: in vitro
# Concentration: not given
# Notes: whole probe, mean of replicates
# Relative to: not given
# Direction: lower = stronger binding
# Constant ends, left off below: GAGTCGTCTCGTCAGCAC … CCGTAGAGCACTCAGGTC
Strand,relative binding energy [ln ratio]
ATACCCAT,0.167
ATTCTGAT,0.162
ATGCGTGG,0.241
ATGGGAAT,0.302
CGTTTAAT,0.744
ATCACGAT,0.679
ATTTATAT,-0.369
ATGCACGC,0.204
AGTTTAAT,0.516
ATGCATGT,-0.728
ATGCCCAC,0.612
ATCAGGAT,0.602
ATGAAGAT,0.287

# Sample 2
# Target: TAR DNA-binding protein 43, full length, His tag (TARDBP, Homo sapiens, UniProt Q13148, residues 1-414)
# Method: RNA Bind-n-Seq
# Molecule type: RNA
# Medium: in vitro
# Concentration: 20 nM
# Notes: 6-mer, flanks averaged, single round
# Together with: 150 mM KCl
# Relative to: input library
# Direction: higher = stronger binding
Strand,6-mer enrichment (R)
UUGCCC,0.663
AUGAAU,0.881
CAAAUG,0.722
UUCCGA,0.574
GAACUA,0.685
GAUUUA,0.609
GGGAAA,2.29
GGGAGU,3.54
GACUAA,0.697
GAGAAA,0.994
UUCUCU,0.556
AUGCGA,0.853
GGCUUG,1.47
CGGCAA,0.924
UCUGGU,0.74
CCAGCC,0.692
AACAGC,0.7
UCCACC,0.601
UCCACG,0.694
UGUCCA,0.649
CGAGGU,1.4
CCUUGG,0.95
UACCAA,0.627
CAAUAU,0.624
CUUGCG,0.875

# Sample 3
# Target: RNA binding protein fox-1 homolog 2, RRM domain, GST-SBP tag (RBFOX2, Homo sapiens, UniProt O43251-10, residues 100-194)
# Method: RNA Bind-n-Seq
# Molecule type: RNA
# Medium: in vitro
# Concentration: 365 nM
# Notes: natural RNA segment, single round, ends assumed
# Relative to: no-protein control
# Direction: higher = stronger binding
# Construct (chain): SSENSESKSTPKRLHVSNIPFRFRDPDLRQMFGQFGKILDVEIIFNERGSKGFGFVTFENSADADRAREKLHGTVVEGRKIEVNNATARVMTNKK
Strand,RBNS enrichment (R)
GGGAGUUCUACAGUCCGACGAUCACAUAAAACAUAUGAGGAAUCUGCAAGGAACACUACAGUUGUGUAAAGUUGUUCUGUUAACUUUUGUACCAAAUAGCAAUACAAACUAGUUGGAACAGUUGGAACUUACAUGGAAUUCUCGGGUGCCAA,0.223
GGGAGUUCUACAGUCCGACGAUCUUUCACAUCACCAAAUUCCUCAUUUAUACUUGGGGAAAAAACAAGGCCAUAUGUAAAAACCCUUCCAAUGCCUAAGUGUCUUUCUCCUGCAACUCCAAACCCAGACUCGCUGGAAUUCUCGGGUGCCAA,0.476
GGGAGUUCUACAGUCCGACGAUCUCCUAGGUGUGGACGCCCGCCUUGCCCUUUGUUAGCUUCCUGGGUUCCCAUGAACUCAGGGAUUUGUUGGAAGAUUCUCUGCAUAAUAGAUAUAUAUGUAUAUAUAUUUAUGGAAUUCUCGGGUGCCAA,0.857
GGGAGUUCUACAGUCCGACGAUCGUAGAUGUGUGAGGGGCUGCAUUAUGGGAACUGGCUCACAGAUUCUGGAGGCCAACAAGUCCCACGAUCGGCUGUCUGCGAUUGGGAGACCAGGAGAAGCCACACCGUAAUGGAAUUCUCGGGUGCCAA,0.509
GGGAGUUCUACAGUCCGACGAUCGCCUUGGAGCUCAAAUCUUUCCUUUGAUUUUUGCUCCUGAUCAUCAAGGCCCCAGUGGCAACCAUGUGGUAAGUGGCCAACCAAGCCCUACCCAGGGUCACCCAACACACUGGAAUUCUCGGGUGCCAA,0.247
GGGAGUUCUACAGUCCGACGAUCUUUUAAGAAGUUUUACUACAGGAAUGUCUACUUUUGUAAGUGACAGGUGUUAAAGGCCCAGGUGUGCUGUGCCAAAGAGCUCAGCAGAGGCUCACGUGGCCCAGGCUGGUUGGAAUUCUCGGGUGCCAA,0.421
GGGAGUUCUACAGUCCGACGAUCCCAAGCACUUGUGCAACUUGGAAAAACAGACUUGGGUUGUGGGAACAGUUGACAGCGUUCUGAAAAGAUGCCAUUUGUUUCCUUCUGAUCUCUCACUGAAUAAUGUUUACUGGAAUUCUCGGGUGCCAA,0.305
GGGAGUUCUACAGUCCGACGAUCAGAGCUGUGGAUGCCGCCUCCUGCCCUGCCUACCCCUGAAACGUGGGGAAUGGGGGCCCCAGGACAGCAUCAGGACUUUUGAGUCCAGCUGCCAGCAAUGGUUCCAACUCUGGAAUUCUCGGGUGCCAA,0.278
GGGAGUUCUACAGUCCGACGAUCUGGGCAAGGAAGUGGCUUCAGAGGACGUCCAGCCUCAGCUGGCCCCACGGAGAGCUCCAGGCAGAGCCCACAGUACCACAGUGUGCCCACACCACCGGUUACUGGCUCCUUGGAAUUCUCGGGUGCCAA,0.291
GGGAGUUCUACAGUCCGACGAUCAUUUUUCCAUAAAAUAGUUGUGAUUAUAUUUUUGUUUUAUAUAGGUCCCAAAUUAUAAUUGUCAAAUAUAUAUUUUAAAUUAAUAAAAGUUGUCAUUCUUAGGAAUUUGGUGGAAUUCUCGGGUGCCAA,1.38
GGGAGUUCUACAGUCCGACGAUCCUGCCUCUGCCUUCUGGACACCGUUUCCUCUCCGCUGCUUCAGAGAGCUUUGCCUCGCCUCCGCCUGCGCUCCCCUCCAGGGUCCUUCUGCUGGCUGCGGACUCGGCCCAUGGAAUUCUCGGGUGCCAA,0.598
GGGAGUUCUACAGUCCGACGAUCCAUUCUGUGCCUCUGGCUUGGCUGAACAGUUCUGGAAUUACCACCAGAAUCCUUGACUCCCUGCCCCUUGUAUAAAUUGGACAGCUUAGGACUUUUAAACUUUAGAUCAAUGGAAUUCUCGGGUGCCAA,0.3

# Sample 4
# Target: Sal-like protein 4, full length isoform B (SALL4, Homo sapiens, UniProt Q9UJQ4-2, residues 1-616)
# Method: universal PBM
# Molecule type: double-stranded DNA, one strand shown
# Medium: in vitro
# Concentration: not given
# Notes: 8-mer, flanks averaged, mean of replicates
# Direction: higher = stronger binding
Strand,E-score
GACGAACC,-0.0143
AAGTAACC,0.0609
TAATTACA,0.317
CAAGTGTG,0.137
TATTTCCA,0.31
CAAAGCAC,0.0153
AGCACCAA,0.0232
AAGGCGAA,-0.107
ACGCCGAG,-0.317
GTGTGTGA,-0.0726
CTGTGCGC,-0.366
GACGAGTA,0.0192
CCGTACCG,-0.308
CCGTCGGA,-0.222
ATTTCCCC,0.00148
TCACTCGA,0.0301
ACGCAAGG,-0.17
GCGGCTCA,-0.281
ATGGTGTG,0.0522
CTTTTATA,0.273
AGCTATTA,0.238
ACGAAGAC,-0.118
GGAGTTAA,0.00983
GTACAAAC,0.102
CCTAAAAA,0.0493

# Sample 5
# Target: Interferon regulatory factor 7, full length, phosphomimetic (IRF7, Homo sapiens, UniProt Q92985, residues 1-503, S101K/S471D/S472D/S475D/S476D/S477D/S483D/S484D/S487D)
# Method: protein-binding microarray
# Molecule type: double-stranded DNA, one strand shown
# Medium: in vitro
# Concentration: 250 nM
# Notes: 60-bp whole probe
# Together with: salmon DNA 0.4 mg/ml
# Relative to: random background probes
# Direction: higher = stronger binding
# Constant ends, left off below: GCCTAGCAC … GTCTTGATTCGCTTGACGCTGCTG
# Target sequence (chain): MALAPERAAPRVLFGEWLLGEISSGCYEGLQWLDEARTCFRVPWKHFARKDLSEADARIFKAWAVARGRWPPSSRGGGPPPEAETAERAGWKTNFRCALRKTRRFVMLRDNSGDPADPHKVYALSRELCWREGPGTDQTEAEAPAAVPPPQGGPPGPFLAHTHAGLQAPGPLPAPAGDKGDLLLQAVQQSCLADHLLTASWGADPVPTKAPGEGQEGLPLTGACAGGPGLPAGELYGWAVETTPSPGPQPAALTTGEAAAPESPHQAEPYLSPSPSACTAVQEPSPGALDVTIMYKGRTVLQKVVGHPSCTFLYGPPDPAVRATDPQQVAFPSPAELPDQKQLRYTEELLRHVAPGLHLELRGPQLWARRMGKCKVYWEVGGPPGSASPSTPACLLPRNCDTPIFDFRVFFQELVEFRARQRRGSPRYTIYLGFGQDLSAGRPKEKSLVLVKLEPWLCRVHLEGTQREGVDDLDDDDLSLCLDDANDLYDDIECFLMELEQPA
Strand,log fluorescence
CTTTTTTTTTTTTTTTTTTGGTGCTAG,1.12 z-score
TCTACTTCTGTTTTTGCTTTGTGCTAG,1.63 z-score
TCAAGCCTAAGGTTTAGGACTGTGCTA,-0.372 z-score
TTAGGTTTCGCACTGGGTTAGTGCTAG,3.28 z-score
TTAGGCCTGGACTATCGGTTAGTGCTA,-0.573 z-score
TTAGATTTCAGTGCCGATTAGTGCTAG,0.171 z-score
TTAGGACTGGGATTTCGGTTAGTGCTA,0.136 z-score
TCCGTATGGATGGCCAATTGGTGCTAG,-0.445 z-score
TTAGGTTTCAGTCTCGGTTAGTGCTAG,2.92 z-score
GACGGTCTGGACACTGGGGACGTGCTA,-0.753 z-score
TTAGGTCTCCTTCACCTTTAGTGCTAG,0.0355 z-score
TCAGATTTCAATTAAAAACTGTGCTAG,0.498 z-score
TTGTATTTGTCCCTATTTAAGTGCTAG,2.39 z-score
ACTCATTTTCGTTTTGTGTCGTGCTAG,10.6 z-score
TTAGGACTGGACTATCGGCTAGTGCTA,-0.618 z-score
TCATATATATTGTTAGTACTGTGCTAG,0.512 z-score
GACGATATCAGTAGCGAGACGTGCTAG,-0.196 z-score
TTAGGTAACCTACTGCTTTAGTGCTAG,-0.18 z-score
GAGGATATCAGACTGGAGACGTGCTAG,-0.273 z-score

# Sample 6
# Target: Histone acetyltransferase KAT6A, winged helix 2, GST fusion (KAT6A, Homo sapiens, UniProt Q92794, residues 85-181)
# Method: protein binding microarray
# Molecule type: double-stranded DNA, one strand shown
# Medium: in vitro
# Concentration: not given
# Notes: 8-mer, flanks averaged, mean of 2 arrays, mostly near background
# Relative to: not given
# Direction: higher = stronger binding
# Residues (chain): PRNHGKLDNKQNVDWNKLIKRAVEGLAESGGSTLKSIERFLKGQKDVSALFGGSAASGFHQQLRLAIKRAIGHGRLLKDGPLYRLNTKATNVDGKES
Strand,E-score
AATTATCG,0.185
AGTCCCGG,-0.0767
CGCTTCAG,0.208
AAAAACCC,0.0498
ATCAAGGC,0.0325
CTTCTCAA,0.0243
GATTAAAC,0.108
AAACGGGG,0.0345
ACACGGCG,0.156
CCTACTAA,-0.0285
ATTAACTA,-0.111
GGATATCA,0.112
GCTGGACA,-0.0299
GGCCTTCA,0.0106
GACACCGC,0.156
AATACAGA,0.0389
AGCCACGG,-0.0844
CGCTTATA,-0.0586
AACCGACA,0.1
CTTGCTCA,0.0511
CACTGCTA,0.0193

# A few entries again (sample 5):
Strand,log fluorescence
TTAGATTTCAGTGCCGATTAGTGCTAG,0.171 z-score
TTAGGACTGGGATTTCGGTTAGTGCTA,0.136 z-score
TCCGTATGGATGGCCAATTGGTGCTAG,-0.445 z-score
TTAGGTTTCAGTCTCGGTTAGTGCTAG,2.92 z-score
GACGGTCTGGACACTGGGGACGTGCTA,-0.753 z-score
TTAGGTCTCCTTCACCTTTAGTGCTAG,0.0355 z-score
TCAGATTTCAATTAAAAACTGTGCTAG,0.498 z-score
TTGTATTTGTCCCTATTTAAGTGCTAG,2.39 z-score
ACTCATTTTCGTTTTGTGTCGTGCTAG,10.6 z-score
TTAGGACTGGACTATCGGCTAGTGCTA,-0.618 z-score
TCATATATATTGTTAGTACTGTGCTAG,0.512 z-score
GACGATATCAGTAGCGAGACGTGCTAG,-0.196 z-score
